Assay results from different studies.
Each numbered part is a random draw from the data of one study; scales do not carry over between parts.

Study 1
Target: RNA binding protein fox-1 homolog 2, RRM domain, GST-SBP tag (RBFOX2, Homo sapiens, UniProt O43251-10, residues 100-194)
Technique: RNA Bind-n-Seq
Form: RNA
Matrix: in vitro
Concentration: 365 nM
Setting: natural RNA segment, single round, ends assumed
Relative to: no-protein control
Direction: higher = stronger binding
Shared flanks, not repeated: GGGAGUUCUACAGUCCGACGAUC … UGGAAUUCUCGGGUGCCAA
Residues (chain): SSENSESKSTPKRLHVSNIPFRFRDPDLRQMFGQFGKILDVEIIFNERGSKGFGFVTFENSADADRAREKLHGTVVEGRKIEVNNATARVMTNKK
Oligonucleotide | RBNS enrichment (R)
UGCUCUCCCUGCUGAUGAUAAAGUAAUCUCUGGAGUCACACCUGGGCCAUGUGAUUGUUUUAUUUUGGAAUUGGUGUAUAUCAUGAAGCCUUGCUGAACUAAGUUUUGUG | 0.448
CAUGGGCCCAGCCCCAAAGGGCAGUGAAUGGCCUUCUCUGAAACCCUGCGUCAAGCAGUGGGAGAGGGCAGUGCCCGGUGCCCUGGUGCUCCCAGCUGCCCUCCUGCUUC | 0.207
GAUUGAACUCUGAAUUAACACAGUAUUCAUUCAUCUGUGUUAUUUUGUAAAAAUAACUGUAGCUUAUAUUCUUUAUUUGUGCAUACCAAUGUGAAAAUCCACUCUUUUAU | 1.12
GUCUGCAGGAGCUCAGUUGGCUACAGAGGCCUGGUUUUAGAGACCAAGCCCUCCUCUGUGUCCAGUAAAUAAUGCUUAUCCCAAGGGGCCCGUCUCCCAGGGCAUUUCCC | 0.299
GCUACAUUUCCAUGCAGGCAUUUGCACUUUGAAGUUAGGGCUGCCCAGUGCCACAUGCAAAGAGUGUAUUUGGUCUAAACAGUUCUUUCCAAACAACCAAAUGGCUGGGC | 0.611
AAUUUCAACUUUUCCUUUCAUACGUCUUUAUUACCCAAGUCUUCUCCCGUCCAUUCCAGUCAAAUCUGGGCUCACUCACCCCAGCGAGCUCUCAAAUCCCUCUCCAACUG | 1.2
AUCUUAUACUGUCCCCCUUUCUAAUGGCCACUCUUUAGUGUUUGUGUCUAAUGUUAAUGCUUAAAGCACAGGACCCCCAUGUAGCUUCCUCUGACUUGGUUUGUAAGUAA | 0.664
AGGGCAAAAGUUUAGAAAUCCACAUACAUUGGUUCUUAGAUCUCUUAGGAAAUCCUGCACCGGUUUCUUCGCUAAUUCUUGAAACUGCUCAAGCUUCAUGUAGGGUCAGG | 0.454
UGGCCUUGGUGUGGAGGGGCUGUACUCUGAGCCCAAGUGAGUCAGCUAUAGGAAGAGGCCAUACCUAGAGCCAAGAACCAUGAAGGCCUGAGAGACGGCAGACUGAGCAG | 0.901
UCUCCUACUCAACCAGGAAGUCAUGGUUUCUGCAGUCCAGAGCCAUGGCAACUGAGAUUCUAAGCUCUCUUUGUCUCAUCCAGGCAACUUUUCUGUCUCCCAACCAAGGA | 0.259
GCCAAUCUGGAGCUUCAUGUUUCCUUCUAAAAGUAGUAACCGGGUAGAAGUGGGUGACCCAUUGAGGACACAUGAUGUGAGGUAUUUCUGCCGGAUUCUAGGUUAGCAAA | 0.948
CUGAUGCCCAUGUUCCAGAGGAAUUCGGAUACCACAAACAGCUAAGACAAUCUCAGCUUUUCUUAGACAAUCUUCUAUCUCAAACUUCAGACAUUCCAGAAUUGUCAUGA | 0.483

Study 2
Target: Ras GTPase-activating protein-binding protein 1, RRM domain (G3BP1, Homo sapiens, UniProt Q13283)
Chain of UniProt Q13283 (whole entry, looked up): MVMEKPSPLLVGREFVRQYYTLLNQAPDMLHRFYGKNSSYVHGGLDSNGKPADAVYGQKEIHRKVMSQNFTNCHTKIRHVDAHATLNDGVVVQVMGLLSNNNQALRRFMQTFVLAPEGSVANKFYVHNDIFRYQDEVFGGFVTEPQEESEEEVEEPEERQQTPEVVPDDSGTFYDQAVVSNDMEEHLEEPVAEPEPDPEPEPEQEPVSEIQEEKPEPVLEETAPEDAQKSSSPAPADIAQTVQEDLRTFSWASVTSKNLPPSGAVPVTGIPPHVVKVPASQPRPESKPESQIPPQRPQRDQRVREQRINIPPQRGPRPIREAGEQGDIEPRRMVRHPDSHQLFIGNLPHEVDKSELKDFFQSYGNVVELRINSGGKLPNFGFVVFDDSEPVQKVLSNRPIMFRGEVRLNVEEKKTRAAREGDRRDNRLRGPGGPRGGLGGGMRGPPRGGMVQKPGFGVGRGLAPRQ
Technique: RNA Bind-n-Seq
Form: RNA
Matrix: in vitro
Concentration: 1 µM
Setting: whole 134-nt RNA, ends assumed
Together with: 150 mM KCl
Relative to: input library
Direction: higher = stronger binding
Shared flanks, not repeated: GGGAGUUCUACAGUCCGACGAUC … UGGAAUUCUCGGGUGUCAAGG
Oligonucleotide | log2 enrichment
GUGCUACACAUCGUAUGUACCGAAUCGGGGUUUUUUUGGGGAAAAAAAGGGGAAAAAAAGGGGAAAGUAUUAUGUUACGCCGUUCGGAUC | 0.838
GUCCUGUGCUACACAUCGUAUGUACCGAAUCGGGGUUUUUGGGGAGGGGAAAAAGGGGAAAGUAUUAUGUUACGCCGUUCGGAUCUGCAC | 0.813
ACCAUGCAGGUGGGCAUCUUUGGGAAGUGGGGCAAGGGGGGGCUAGGGAGGGGGGUAACACUUUGGGAACAGGUGGUCCCAGGUCGUUUC | 1.04
UGGGAGGUGGAUUUUGUUUAUUUUUUUAGCUCAUUUCCAGGGGUGGGAAUUUUAUUUUAAUAUGUGUCAUGAAUAAAGUUGUUUUUGAAA | 1.81
UGGCUUCGAAGUACAGUCUUUGCAGGAUGCAGGAAAUCAGCUUGGUAUGGAGGAUACAUCUCUGAGCUCUGGAAUGCUCACCCAGAACAC | -0.0937
UCCUGUGCUACACAUCGUAUGUACCGAAUCGGGUUUUUUGGGUUUUUUGGUUUUUUGGGAAAGUAUUAUGUUACGCCGUUCGGAUCUGCA | -0.0653
UCAAGUCCUGUGCUACACAUCGUAUGUACCGAAUCGGAAAAAGGUUUUUGGUGGAAAGUAUUAUGUUACGCCGUUCGGAUCUGCACUUCC | -0.18
GCAGGAAGUAAAAACAACUGGAAAUGCUUCGGAUAGUGGCAGGGGUGGGGGUUGCUAAGGAAAGGGUGGGAUGGGAGUGGGUAAAGAGUU | 0.952
AGUCCUGUGCUACACAUCGUAUGUACCGAAUCGGGGUGGGGAAAAAGGGGUUUGGGGAAAGUAUUAUGUUACGCCGUUCGGAUCUGCACU | 0.972
CAAGUCCUGUGCUACACAUCGUAUGUACCGAAUCGGAAAGGGAAAGGGGAAAGGGAAAGUAUUAUGUUACGCCGUUCGGAUCUGCACUUC | -0.0668
UGGCCCUGGUGGCAUGCGGGGCGGAAGAGGUGGCCUCAUGGAUCGUGGUGGUCCCGGUGGAAUGUUCAGAGGUGGCCGUGGUGGAGACAG | 0.979
CUGUGCUACACAUCGUAUGUACCGAAUCGGGGUUUUUGGGGAAAAAAAGGGGUUUUUGGGGAAAGUAUUAUGUUACGCCGUUCGGAUCUG | 1.01
CUGUGCUACACAUCGUAUGUACCGAAUCGGGGUUUUUUUGGUUUUUUUGGGUUUUUUUGGGGAAAGUAUUAUGUUACGCCGUUCGGAUCU | -0.345
CUCAAGUCCUGUGCUACACAUCGUAUGUACCGAAUCGGUGGGGUGGGGUGGGGAAAGUAUUAUGUUACGCCGUUCGGAUCUGCACUUCCA | 0.313

Study 3
Target: Interferon regulatory factor 3, full length, phosphomimetic (IRF3, Homo sapiens, UniProt Q14653, residues 1-427, S386D/S396D/S398D/S402D/T404D/S405D)
Technique: protein-binding microarray
Form: double-stranded DNA, one strand shown
Matrix: in vitro
Concentration: 2540 nM top
Setting: 60-bp whole probe
Together with: salmon DNA 0.4 mg/ml
Relative to: random background probes
Direction: higher = stronger binding
Shared flanks, not repeated: GCCTAGCAC … GTCTTGATTCGCTTGACGCTGCTG
Target sequence (chain): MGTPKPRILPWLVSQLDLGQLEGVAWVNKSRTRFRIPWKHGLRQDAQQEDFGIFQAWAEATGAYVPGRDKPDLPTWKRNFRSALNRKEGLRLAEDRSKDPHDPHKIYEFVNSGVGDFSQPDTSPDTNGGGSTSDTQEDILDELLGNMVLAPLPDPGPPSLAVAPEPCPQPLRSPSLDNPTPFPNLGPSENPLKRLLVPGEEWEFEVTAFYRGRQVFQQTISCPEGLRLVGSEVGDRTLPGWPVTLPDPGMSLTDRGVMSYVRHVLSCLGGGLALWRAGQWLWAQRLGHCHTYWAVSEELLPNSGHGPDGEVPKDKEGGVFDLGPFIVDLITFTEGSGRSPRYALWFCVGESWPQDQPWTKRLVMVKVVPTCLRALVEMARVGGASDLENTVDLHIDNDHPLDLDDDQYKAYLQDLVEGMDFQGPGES
Oligonucleotide | fitted relative affinity
CTAGGTTTCCTTTCCCTTTAGTGCTAG | 10.3 z-score
TTAGGCCTGCTTCTCCTTTAGTGCTAG | -0.427 z-score
TTCTTACTTTGGGATTCTGAGTGCTAG | 0.741 z-score
GACGGTCTCCTTATCCAGACGTGCTAG | 3.14 z-score
TTAGGACTGGACTTTCGGCTAGTGCTA | -0.483 z-score
CTGGAGAGACGGAGTCTCCAGTGCTAG | -0.715 z-score
TCACGTATATTCCCTAGAACTGTGCTA | 0.087 z-score
GAGGATTTCGGGTATCGAGACGTGCTA | 0.44 z-score
TGAGGTTTCGACACTGGGTTAGTGCTA | 2.17 z-score
GTCGATATCAGTTTCGAGACGTGCTAG | 4.31 z-score
GTAGATTCCAGTTTCGATTAGTGCTAG | 4.76 z-score
TCATTTTTCCCTATTATACTGTGCTAG | 3.17 z-score
GAAGATCTCAGTATCGAGACGTGCTAG | 0.498 z-score
GACGGCATCCTTCTCCTGACGTGCTAG | 0.852 z-score
GACGGTTTCGGACTGGGTACGTGCTAG | 4.35 z-score
TCAAATATTTACCTCTCACTGTGCTAG | 0.218 z-score
ACCCATCTCCAGTAGCCTAGCGTGCTA | 1.91 z-score
TTAGGTTCCCTGTTCCTTTAGTGCTAG | 2.49 z-score
TCAATTTTCTTTAACTCACTGTGCTAG | 1.24 z-score
TTAGGACTCCTTCTCCTTTAGTGCTAG | 2.03 z-score
TACGATCTCAGTCTCGAGACGTGCTAG | 0.716 z-score
TCACATATTTGTTTCCAACTGTGCTAG | 3.15 z-score
TTAGGTTTCGGGTTTCGGTTAGTGCTA | 6.29 z-score
GCCGGACTGGGTATCGGGACGTGCTAG | 0.08 z-score
TTAGAACTGCGTATCGATTAGTGCTAG | 0.133 z-score

Study 4
Target: Prothrombin, mature alpha-thrombin (F2, Homo sapiens, UniProt P00734)
Technique: aptamer microarray, sandwich
Form: DNA with 2'F-ANA
Matrix: in vitro
Concentration: 200 nM
Setting: whole 15-mer aptamer, many near background
Together with: Cy3 exosite-II aptamer, 400 nM
Direction: higher = stronger binding
Oligonucleotide: GGTTGGTGTGGTTGG
Modification | mean fluorescence intensity [a.u.]
2'F-ANA at 1 2 3 4 9 10 12 14 15 | 49.8
2'F-ANA at 2 3 4 9 10 12 13 15 | 266
2'F-ANA at 1 2 3 4 5 7 8 9 11 12 13 15 | 71.5
2'F-ANA at 3 4 7 8 9 11 12 15 | 794
2'F-ANA at 2 5 6 7 10 11 13 | 54.8
2'F-ANA at 2 3 4 5 6 7 8 10 11 14 15 | 50.5
2'F-ANA at 3 5 8 11 13 14 15 | 57.2
2'F-ANA at 1 2 6 13 14 15 | 49.3
2'F-ANA at 3 4 5 7 8 10 14 | 51.4
2'F-ANA at 3 4 5 6 7 9 10 12 | 85.9
2'F-ANA at 4 5 6 10 14 15 | 48.3
2'F-ANA at 7 8 9 15 | 636
2'F-ANA at 1 3 8 9 10 12 13 14 15 | 62.7
2'F-ANA at 1 2 11 12 14 | 90.2
2'F-ANA at 2 4 7 8 12 13 14 15 | 145
2'F-ANA at 5 8 10 12 14 | 41.2
2'F-ANA at 3 4 5 6 9 14 15 | 143
2'F-ANA at 1 6 9 10 11 12 13 14 | 55.7
2'F-ANA at 1 2 3 7 8 9 10 12 | 107
2'F-ANA at 2 5 6 8 9 10 | 47.5
2'F-ANA at 2 3 4 5 6 8 9 10 13 14 15 | 131
2'F-ANA at 2 4 5 7 10 | 46.2
2'F-ANA at 2 3 6 9 10 11 12 13 15 | 326
2'F-ANA at 1 3 6 10 11 12 13 14 | 56.7
2'F-ANA at 6 7 13 15 | 404
